# Published values from different studies.
# Every numbered part comes from another study and shows a few of its results, in no order. Substitutions count along the parent as printed.

# Study 1 — method: DHFR PCA, deep sequencing; sample: yeast; added: (+)-ABA 0.0091 µM; baseline: wild-type fitted maximum; direction: higher = stronger binding
# Target: ABI1, truncated, D143A, DHFR fusion (Arabidopsis thaliana)
# Notes: methotrexate growth selection, single substitutions
# Starting sequence: PYL1, truncated, DHFR fusion (Arabidopsis thaliana); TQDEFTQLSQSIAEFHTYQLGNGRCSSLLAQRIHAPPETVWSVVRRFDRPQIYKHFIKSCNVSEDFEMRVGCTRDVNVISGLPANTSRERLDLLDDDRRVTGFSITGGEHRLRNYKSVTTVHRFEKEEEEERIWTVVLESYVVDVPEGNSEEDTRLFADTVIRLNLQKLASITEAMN
Change,relative binding score
T106D,33.1%
Q7E,33.2%
S80V,10.9%
R45H,-1.84%
L156C,13.9%
N177R,15.8%

# Study 2 — method: universal PBM; molecule type: double-stranded DNA, one strand shown; sample: in vitro; concentration: 600 nM; direction: higher = stronger binding
# Target: Sal-like protein 4, full length isoform A (SALL4, Homo sapiens, UniProt Q9UJQ4, residues 1-1053)
# Sequence of UniProt Q9UJQ4 (whole entry, looked up): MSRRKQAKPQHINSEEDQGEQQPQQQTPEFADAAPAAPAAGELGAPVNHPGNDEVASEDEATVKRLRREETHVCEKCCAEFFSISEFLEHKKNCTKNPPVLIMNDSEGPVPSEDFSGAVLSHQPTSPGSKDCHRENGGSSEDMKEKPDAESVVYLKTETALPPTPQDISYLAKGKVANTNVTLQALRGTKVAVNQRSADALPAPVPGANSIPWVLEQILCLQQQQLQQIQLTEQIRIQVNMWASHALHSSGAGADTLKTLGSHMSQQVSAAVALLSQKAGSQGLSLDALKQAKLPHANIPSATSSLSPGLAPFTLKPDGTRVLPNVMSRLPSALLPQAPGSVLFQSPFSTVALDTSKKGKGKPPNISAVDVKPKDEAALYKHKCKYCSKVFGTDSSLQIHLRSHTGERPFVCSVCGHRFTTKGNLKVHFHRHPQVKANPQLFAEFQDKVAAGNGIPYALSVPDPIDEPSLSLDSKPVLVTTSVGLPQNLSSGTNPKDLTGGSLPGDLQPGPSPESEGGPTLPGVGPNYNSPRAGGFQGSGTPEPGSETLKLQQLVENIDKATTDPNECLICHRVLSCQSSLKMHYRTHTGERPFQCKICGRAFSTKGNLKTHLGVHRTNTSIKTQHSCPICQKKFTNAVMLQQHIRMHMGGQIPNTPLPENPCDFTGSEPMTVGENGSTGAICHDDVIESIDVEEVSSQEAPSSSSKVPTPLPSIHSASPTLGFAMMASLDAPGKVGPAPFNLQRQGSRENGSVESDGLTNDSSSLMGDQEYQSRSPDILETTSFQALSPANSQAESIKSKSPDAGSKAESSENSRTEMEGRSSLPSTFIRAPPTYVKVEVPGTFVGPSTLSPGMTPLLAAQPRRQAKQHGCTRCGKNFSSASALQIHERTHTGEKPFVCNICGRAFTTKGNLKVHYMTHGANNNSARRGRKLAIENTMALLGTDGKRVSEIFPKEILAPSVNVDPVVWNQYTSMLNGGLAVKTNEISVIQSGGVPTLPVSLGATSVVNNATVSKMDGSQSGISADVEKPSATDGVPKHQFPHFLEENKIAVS
# Notes: 8-mer, flanks averaged, mean of replicates
Sequence,E-score
CTTAACTC,0.0223
AGGGACTG,-0.2
AGCTCTTC,-0.121
GGTGACTA,-0.0437
AGCCCAAA,0.0415
TCGCTAAA,0.0238
AATACCTC,0.21
CCTAATAC,0.142
CTACTGAA,0.112
ATGACAGC,0.0425
ACACAAAG,0.049

# Study 3 — method: protein binding microarray; molecule type: double-stranded DNA, one strand shown; sample: in vitro; concentration: not given; baseline: not given; direction: higher = stronger binding
# Target: Histone acetyltransferase KAT6A, winged helix 2, GST fusion (KAT6A, Homo sapiens, UniProt Q92794, residues 85-181)
# Notes: 8-mer, flanks averaged, mean of 2 arrays, mostly near background
# Target sequence (chain): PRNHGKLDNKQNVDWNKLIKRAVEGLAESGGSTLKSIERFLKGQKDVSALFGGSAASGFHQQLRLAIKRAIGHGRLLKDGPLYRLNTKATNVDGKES
Sequence,E-score
ACTAGGTA,-0.113
GGTCGGGA,0.206
ACCTATGG,0.0164
CATACGGG,-0.0673
GGGTTTAA,-0.00304
CGATCCTA,-0.107
GTTAGGCA,-0.055

# Mixed results
Substance,target,test,system,setting,how to read,quantity,result
"PhoQ, residues 284 288 289 292 302 303 TGYLSA","PhoP, residues 12 14 15 18 19 IQSYL (Escherichia coli, UniProt P23836)","Sort-seq, refers to: YFP reporter",E. coli,"PhoQ-PhoP variant library, added: 10 µM Mg2+","baseline: high Mg2+ state, higher = stronger signaling",fold induction,5.16

# Repeated from above (study 2):
Sequence,E-score
AATACCTC,0.21
CCTAATAC,0.142
CTACTGAA,0.112
ATGACAGC,0.0425
